Published values from different studies.
Protocols differ between the studies behind these lines. Values joined by “and” are separate records of one study, mostly repeats; a detail may differ. ± gives the spread as reported.

| SMILES | tested on | assay | test system | setting | how to read | measurement | result |
| --- | --- | --- | --- | --- | --- | --- | --- |
| Cn1cc(Nc2nccc(-c3ccc4c(c3)CN(C3COC3)CC[C@H]4NC(=O)c3cn(C(C)(C)C)nn3)n2)cn1 |  | refers to: Plasmablasts count | human, clinical trial, whole blood | 150 mg twice daily, follow-up |  | percent change from baseline | 34.2% |
| N#Cc1ccc2c(c1)[C@H]1CCCN(C(=O)c3ccc4[nH]cnc4c3)[C@H]1C2 |  |  | human females | 240 mg, end of trial |  | total testosterone level | 0.7 nmol/L |
| C[C@@H](Oc1cc(-c2cnn(C3CCNCC3)c2)cnc1N)c1c(Cl)ccc(F)c1Cl |  |  | human patients, plasma | oral, dose not given, cycle 2 day 1, geometric mean, added: avelumab |  | AUCtau, dose-normalized | 11 ng·h/mL/mg |
| CNCc1ccc(-c2[nH]c3cc(F)cc4c3c2CCNC4=O)cc1 |  | refers to: Dysgeusia | human patients | oral, dose not given, all grades, all doses |  | patients with adverse event | 14.3% |
| Cc1cc(-c2nccc3c2ccn3CC(=O)Nc2ccc(-c3cnccn3)cn2)ccn1 |  |  | human | 20 mg once daily, multiple ascending dose |  | foreign body sensation | 0% |
| Cc1noc(C)c1-c1cc(C(O)(c2ccccn2)c2ccccn2)c2nc(C3CC3)[nH]c2c1 |  |  | human, plasma | oral, 6 mg, cycle 1 day 8, monotherapy |  | AUCtau | 9370 ng·h/mL |
| C[C@H]1[C@H](NC(=O)/C(=N\OC(C)(C)C(=O)O)c2csc(N)n2)C(=O)N1S(=O)(=O)O |  | starch gel membrane permeability | Gram-negative envelope surrogate | 200 µM, 60 min, pH 7.4 |  | amount permeated | 3.7 nmol |
| Cn1cncc1[C@@](N)(c1ccc(Cl)cc1)c1ccc2c(c1)c(-c1cccc(Cl)c1)cc(=O)n2C |  |  | human, plasma | oral, 200 mg/m^2, cycle 1 first dose | baseline: AUC(0-inf) over AUC(0-12h) | accumulation index | 1.25 and 1.13 and 1.05 and 1.11 and 1.58 |
| [H]/N=C(/N)N[C@H]1[C@H](O)[C@@H](O)[C@H](O[C@@H]2O[C@@H](C)[C@](O)(C=O)[C@H]2O[C@@H]2O[C@@H](CO)[C@H](O)[C@@H](O)[C@@H]2NC)[C@@H](N/C(N)=N\[H])[C@@H]1O |  | starch gel membrane permeability | Gram-negative envelope surrogate | 200 µM, 60 min, pH 7.4 |  | amount permeated | 1.72 nmol |
| O=c1cc(-c2ccccc2)oc2ccccc12 |  |  | human plasma | mean, both sexes |  | plasma concentration | 1650 nM |
| Cc1c2oc3c(C)ccc(C(=O)N[C@@H]4C(=O)N[C@H](C(C)C)C(=O)N5CCC[C@H]5C(=O)N(C)CC(=O)N(C)[C@@H](C(C)C)C(=O)O[C@@H]4C)c3nc-2c(C(=O)N[C@@H]2C(=O)N[C@H](C(C)C)C(=O)N3CCC[C@H]3C(=O)N(C)CC(=O)N(C)[C@@H](C(C)C)C(=O)O[C@@H]2C)c(N)c1=O |  | LC-MS | children with cancer, plasma | dose not given, 22 h |  | minimum plasma concentration | 1.1 µg/L |
| COc1ncc(-c2nc3c(n2C(C)C)[C@H](c2ccc(Cl)cc2)N(c2cc(Cl)cn(C)c2=O)C3=O)c(OC)n1 |  | LC-MS/MS | human, plasma | oral, 30 mg, cycle 1 day 1, low-dose arm |  | AUC(0-last) | 2690 ng·h/mL |
| NC[C@H]1O[C@H](O[C@H]2[C@H](O)[C@@H](O[C@H]3O[C@H](CO)[C@@H](O)[C@H](N)[C@H]3O)[C@H](N)C[C@@H]2N)[C@H](N)C[C@@H]1O |  | starch gel membrane permeability | Gram-negative envelope surrogate | 200 µM, 90 min, pH 7.4 |  | amount permeated | 2.34 nmol |
| CCc1nc(C(N)=O)c(Nc2ccc(N3CCC(N4CCN(C)CC4)CC3)c(OC)c2)nc1NC1CCOCC1 |  |  | Japanese patients, plasma | oral, 200 mg, cycle 1 day 28, multiple doses, mean | baseline: single dose | accumulation ratio (AUC) | 8.1 |
| COc1cc2c(c(OC)c1OC)C(=O)c1c(cc(C)c(O)c1OC)C2=O | HepaRG co-cultured with HK-2 | MTT |  | 266.67 µM, 24 h | baseline: untreated control | cell viability | 38.9 ± 7.66% |
| CNC(=O)c1ccc(-c2cnc3ncc(Cc4ccc5ncccc5c4)n3n2)cc1F |  | phase 1 clinical trial, refers to: upper abdominal pain | HCC expansion cohort | oral, 600 mg twice daily, grade 3 or 4 |  | adverse event incidence | 0% |
| Cn1cnc2[nH]c(=O)[nH]c(=O)c21 |  |  | human, both sexes, plasma |  |  | samples above LOQ | 100% |
| CN1C(=O)[C@@H](NC(=O)c2nnc(Cc3ccccc3)[nH]2)COc2cccnc21 |  | phase I single ascending dose | human, male and female | oral, 800 mg, fasted |  | participants with any serious TEAE | 0% |
| CCOc1c([C@H](C)n2nc(C)c3c(N)ncnc32)cc(Cl)c(F)c1[C@@H]1CNC(=O)C1 |  |  | patients with indolent lymphoma, plasma | oral, 30 mg, day 15, monotherapy |  | half-life | 11.7 ± 5 h |
| CCN1/C(=C/C(C)=O)Sc2ccc(F)cc21 |  |  | cynomolgus monkey | oral, 100 mg/kg, 4 h post-dose | baseline: pre-dose | mean blood pressure change | 102 ± 2.8% |
| COc1ccc(C(=O)O)cc1OS(=O)(=O)O |  |  | human plasma | mean |  | plasma concentration | 2080 nM |
| C[Si](C)(C)O[Si](C)(C)C |  |  |  | 7 to 48 µg/L, 20.0 °C |  | log KAW | 2.32 |
| Cc1cc(Nc2cc3ncccc3c(N[C@@H]3C[C@H]4CC[C@@H](C3)N4CCC#N)n2)n[nH]1 |  |  | healthy human subjects | oral, 30 mg, 2 weeks, single ascending dose |  | sneezing incidence | 0% |
| COc1cccc(-c2n[nH]c(SCc3ccccn3)n2)c1OC |  |  | Sprague-Dawley rat, plasma | oral, 100 mg/kg | baseline: female over male | AUC(0-last) ratio | 1.31 |

| SMILES | tested on | assay | test system | setting | how to read | measurement | result |
| --- | --- | --- | --- | --- | --- | --- | --- |
| COc1ccc2nc([S+]([O-])Cc3ncc(CO)c(OC)c3C)[nH]c2c1 (stereo not drawn) |  |  | human, dried plasma spots | 4 h, added: rifampicin pretreatment | baseline: induced over baseline | R/S enantiomer ratio fold change | 0.01 |
| CCO |  |  | human | concentration not given |  | number of treatment-related AEs | 41 |
| CC(C)c1nc(N(C)S(C)(=O)=O)nc(-c2ccc(F)cc2)c1/C=C/[C@@H](O)C[C@@H](O)CC(=O)O |  |  | healthy human volunteers | oral, 10 mg, 6 days, monotherapy | baseline: subjects | severe TEAE incidence | 0% |
| CC(Oc1ccc(O)cc1)C(=O)O (stereo not drawn) |  |  | human plasma | mean |  | plasma concentration | 347 nM |
| C[C@@H](N)C1CCN(S(=O)(=O)c2cccc3cnccc23)CC1 |  |  | healthy volunteers, fasted, plasma | oral, 75 mg |  | duration of quantifiable plasma levels | ≤ 4 h |
| CC(=O)c1c(C)cc2cc(O)cc(O[C@@H]3O[C@H](CO)[C@@H](O)[C@H](O)[C@H]3O)c2c1O | HepaRG co-cultured with HK-2 | MTT |  | 16.67 µM, 48 h | baseline: untreated control | cell viability | 113 ± 3.64% |
| Cc1ccc(OS(=O)(=O)O)c(O)c1 |  |  | human plasma | median |  | plasma concentration | 29300 nM |
| O=C(N[C@H](Cc1c[nH]c2ccccc12)C(=O)Nc1ccncc1)c1ccc(-c2cc(C(F)(F)F)ccc2F)cc1F |  |  | Swiss Webster mouse, female, plasma | oral, 50 mg/kg, 2 h, 20% HPβCD vehicle |  | concentration | 490 nM |
| O=C(O)CNC(=O)c1ccc(O)cc1 |  |  | human plasma | mean |  | plasma concentration | 6740 nM |
| CCC[C@@H]1C[C@@H](C(=O)N[C@@H]([C@H]2O[C@H](SC)[C@H](O)[C@@H](O)[C@H]2O)[C@@H](C)O)N(C)C1 |  | starch gel membrane permeability | Gram-negative envelope surrogate | 200 µM, 90 min, pH 7.4 |  | amount permeated | 3.99 nmol |
| O=C(Nc1cnc2ccccc2c1)c1cc2[nH]ccc2cc1Cl | COS-7 |  |  | 10 µM, 24 h, 0.1% DMSO, unit not given | baseline: vehicle control | confluence | 0.83 ± 0.14 |
| CC[C@@](O)(c1cnc(C(F)(F)F)c(Cl)c1)c1c2cnn(C3CC3)c(=O)c2nn1C |  |  | rat Sprague-Dawley male, plasma | intravenous, 1 mg/kg |  | CL | 2.07 ± 0.284 mL/min/kg |
| N#CCNC(=O)c1ccc(-c2ccnc(Nc3ccc(N4CCOCC4=O)cc3)n2)cc1 |  |  | healthy volunteers, plasma | dose not given, added: ritonavir multiple-dose | baseline: compound alone | AUCtau increase | 24% |
| CC(C)NCC(O)COc1cccc2ccccc12 (stereo not drawn) |  | PAMPA | artificial membrane | 10 µM, 4 h |  | permeability coefficient | > 1 ×10⁻⁶ cm/s |
| Cc1nc2cccc(OCC(C)(C)C(=O)NC(C)C)c2c(N)c1C(=O)O |  |  | Sprague-Dawley rat, plasma | oral, 10 mg/kg, day 7 | baseline: female over male | AUC(0-last) ratio | 1.23 ± 1 |
| CN1CCN(c2cccc3c2CCN(C(=O)/C=C/c2c(-n4cnnn4)ccc(Cl)c2F)[C@@H]3C(=O)Nc2ccc(C(=O)O)cc2)C(=O)C1 |  |  | healthy human subjects | intravenous infusion, 20 mg/h, 5 days |  | subjects with skin irritation | 12.5% |
| O=C(O)CCC(=O)O.[2H]C([2H])([2H])Oc1cc(C)c2[nH]ccc2c1CN1CC[C@@H](C2CC2)C[C@H]1c1ccc(C(=O)O)cc1 |  | multiple ascending dose | healthy Chinese subjects | 125 mg twice daily |  | subjects with elevated LDL TEAE | 0% |
| Cc1ccc([C@@H]2O[C@H](CO)[C@@H](O)[C@H](O)[C@H]2O)cc1Cc1ccc(-c2ccc(F)cc2)s1 |  |  | Japanese type 2 diabetes patients | 100 mg, day 15, 24 h urine collection | baseline: baseline | urinary calcium excretion change | -0.456 mg |
| CCCCOc1nc(N)c2c(n1)N(Cc1cccc(CN3CCCC3)c1)CC(=O)N2 |  | refers to: blurred vision | human | oral, 2 mg |  | drug-related TEAE incidence | 0% |
| COc1cccc2c(Nc3ccc4[nH]c(C(=O)N/N=C/c5ccc(SC)cc5)cc4c3)cc(C)nc12 | COS-7 |  |  | 10 µM, 24 h, 0.1% DMSO, unit not given | baseline: vehicle control | confluence | 0.96 ± 0.05 |
| CC(C)(C(=O)N1CCOc2c(C#N)cncc2C1)C(F)F |  | refers to: gingival bleeding | human, both sexes | oral, 10 mg once daily, 14 days, multiple ascending dose |  | subjects with TEAE | 0% |
| CC(C)C[C@H](NC(=O)[C@@H](Cc1c[nH]c2ccccc12)NC(=O)[C@H](Cc1ccc(O)cc1)NC(=O)[C@H](CO)NC(=O)[C@H](Cc1c[nH]c2ccccc12)NC(=O)[C@H](Cc1c[nH]cn1)NC(=O)[C@@H]1CCC(=O)N1)C(=O)N[C@@H](CCCNC(=N)N)C(=O)N1CCC[C@H]1C(=O)NCC(N)=O |  |  | Chinese girls, precocious puberty, plasma | intramuscular, 22.5 mg, 4 h post-injection day 1, mean |  | plasma concentration | 48.2 ng/mL |
| OCc1nc2ccc(NCc3ccc(C(F)(F)F)cc3)cc2[nH]1 |  |  | male Balb/c mice, brain | oral, 10 mg/kg, 6 h | baseline: tissue over plasma | tissue/plasma ratio | 5.6 ± 0.33 |
| CCO[C@H]1CCN(Cc2c(OC)cc(C)c3[nH]ccc23)[C@H](c2ccc(C(=O)O)cc2)C1 |  |  | human healthy controls, plasma | oral, 200 mg single dose, median |  | unbound AUCinf | 3600 ng·h/mL |

Excerpt of the above:
| SMILES | tested on | assay | test system | setting | how to read | measurement | result |
| --- | --- | --- | --- | --- | --- | --- | --- |
| O=C(O)CCC(=O)O.[2H]C([2H])([2H])Oc1cc(C)c2[nH]ccc2c1CN1CC[C@@H](C2CC2)C[C@H]1c1ccc(C(=O)O)cc1 |  | multiple ascending dose | healthy Chinese subjects | 125 mg twice daily |  | subjects with elevated LDL TEAE | 0% |
| Cc1ccc([C@@H]2O[C@H](CO)[C@@H](O)[C@H](O)[C@H]2O)cc1Cc1ccc(-c2ccc(F)cc2)s1 |  |  | Japanese type 2 diabetes patients | 100 mg, day 15, 24 h urine collection | baseline: baseline | urinary calcium excretion change | -0.456 mg |
| CCCCOc1nc(N)c2c(n1)N(Cc1cccc(CN3CCCC3)c1)CC(=O)N2 |  | refers to: blurred vision | human | oral, 2 mg |  | drug-related TEAE incidence | 0% |
| COc1cccc2c(Nc3ccc4[nH]c(C(=O)N/N=C/c5ccc(SC)cc5)cc4c3)cc(C)nc12 | COS-7 |  |  | 10 µM, 24 h, 0.1% DMSO, unit not given | baseline: vehicle control | confluence | 0.96 ± 0.05 |
| CC(C)(C(=O)N1CCOc2c(C#N)cncc2C1)C(F)F |  | refers to: gingival bleeding | human, both sexes | oral, 10 mg once daily, 14 days, multiple ascending dose |  | subjects with TEAE | 0% |
| CC(C)C[C@H](NC(=O)[C@@H](Cc1c[nH]c2ccccc12)NC(=O)[C@H](Cc1ccc(O)cc1)NC(=O)[C@H](CO)NC(=O)[C@H](Cc1c[nH]c2ccccc12)NC(=O)[C@H](Cc1c[nH]cn1)NC(=O)[C@@H]1CCC(=O)N1)C(=O)N[C@@H](CCCNC(=N)N)C(=O)N1CCC[C@H]1C(=O)NCC(N)=O |  |  | Chinese girls, precocious puberty, plasma | intramuscular, 22.5 mg, 4 h post-injection day 1, mean |  | plasma concentration | 48.2 ng/mL |
